# Results gathered from unrelated publications.
# Every numbered part comes from another study and shows a few of its results, in no order.

# Block 1 — technique: RNAcompete; form: RNA; sample: in vitro; tested at: 20 nM; notes: 7-mer, probes averaged, single round; baseline: mean of 7-mers; direction: higher = stronger binding
# Target: PABPC1L2, full length, GST fusion (mouse, UniProt A0ABA7IW68)
# Construct (chain): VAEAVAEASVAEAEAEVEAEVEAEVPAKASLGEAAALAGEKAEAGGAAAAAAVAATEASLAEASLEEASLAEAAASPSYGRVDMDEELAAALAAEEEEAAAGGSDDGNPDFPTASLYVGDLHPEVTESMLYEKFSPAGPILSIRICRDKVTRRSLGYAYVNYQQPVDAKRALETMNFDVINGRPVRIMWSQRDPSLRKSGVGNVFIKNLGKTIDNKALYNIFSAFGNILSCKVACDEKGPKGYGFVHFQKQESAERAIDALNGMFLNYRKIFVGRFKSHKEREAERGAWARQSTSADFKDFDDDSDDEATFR
Oligonucleotide,7-mer Z-score
UUUUGGC,-0.215
GUCCUAA,-0.122
UCACCUC,-0.403
AGUCGAC,-0.251

# Block 2 — technique: protein binding microarray; form: double-stranded DNA, one strand shown; sample: in vitro; tested at: not given; baseline: not given; direction: higher = stronger binding
# Target: Histone acetyltransferase KAT6A, winged helix 1, GST fusion (KAT6A, Homo sapiens, UniProt Q92794, residues 1-85)
# Notes: 8-mer, flanks averaged, mean of 2 arrays, mostly near background
# Residues (chain): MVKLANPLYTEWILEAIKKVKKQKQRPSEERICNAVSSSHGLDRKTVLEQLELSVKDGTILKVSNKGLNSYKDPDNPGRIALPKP
Oligonucleotide,E-score
CACAGGCC,-0.108
CTTTTACC,-0.124
CTTGTGAC,-0.0227
ATGGGTAG,-0.152

# Block 3 — technique: protein-binding microarray; form: double-stranded DNA, one strand shown; sample: in vitro; tested at: 2200 nM top; notes: 60-bp whole probe; together with: salmon DNA 0.4 mg/ml; baseline: random background probes; direction: higher = stronger binding; shared flanks, not repeated: GCCTAGCAC … GTCTTGATTCGCTTGACGCTGCTG
# Target: Interferon regulatory factor 7, full length, phosphomimetic (IRF7, Homo sapiens, UniProt Q92985, residues 1-503, S471D/S472D/S475D/S476D/S477D/S483D/S484D/S487D)
# Sequence of UniProt Q92985 (whole entry, unmodified, looked up): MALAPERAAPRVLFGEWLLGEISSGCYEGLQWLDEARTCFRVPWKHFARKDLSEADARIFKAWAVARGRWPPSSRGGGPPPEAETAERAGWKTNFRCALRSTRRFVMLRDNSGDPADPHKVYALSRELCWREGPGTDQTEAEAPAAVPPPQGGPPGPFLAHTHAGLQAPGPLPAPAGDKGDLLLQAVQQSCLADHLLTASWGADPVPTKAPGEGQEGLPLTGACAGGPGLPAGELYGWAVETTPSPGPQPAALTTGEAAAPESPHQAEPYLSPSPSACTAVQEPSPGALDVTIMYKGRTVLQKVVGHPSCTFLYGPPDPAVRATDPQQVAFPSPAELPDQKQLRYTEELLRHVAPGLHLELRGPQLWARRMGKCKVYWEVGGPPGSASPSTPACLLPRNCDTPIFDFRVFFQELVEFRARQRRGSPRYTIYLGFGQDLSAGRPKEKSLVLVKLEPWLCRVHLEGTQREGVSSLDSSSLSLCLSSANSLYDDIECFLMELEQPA
Oligonucleotide,fitted relative affinity
GACGGTTTCGACTATCGGGTCGTGCTA,3.7 z-score
GCCCCACCCGCTCTGGCCCCGTGCTAG,-0.109 z-score
GACGGAATCGGACTGGGGACGTGCTAG,-0.399 z-score
TCAGGTGTCTTTTGTGGAACTGTGCTA,0.279 z-score
TTAGATTTCACTTCCGATTAGTGCTAG,2.98 z-score

# Mixed results
Molecule,target,test,system,setting,scale,measurement,result
"PhoQ, residues 284 288 289 292 302 303 TTCLQL","PhoP, residues 12 14 15 18 19 AWHSL (Escherichia coli, UniProt P23836)","Sort-seq, refers to: YFP reporter",E. coli,"PhoQ-PhoP variant library, together with: 10 µM Mg2+","baseline: high Mg2+ state, higher = stronger signaling",fold induction,2.66
